# Measured values collected from several papers.
# Every numbered part comes from another study and shows a few of its results, in no order.

# Set 1 — technique: protein binding microarray; molecule type: double-stranded DNA, one strand shown; sample: in vitro; tested at: not given; baseline: not given; direction: higher = stronger binding
# Target: Histone acetyltransferase KAT6A, both winged helices, GST fusion (KAT6A, Homo sapiens, UniProt Q92794, residues 1-181)
# Setting: 8-mer, flanks averaged, mean of 2 arrays, mostly near background
# Target sequence (chain): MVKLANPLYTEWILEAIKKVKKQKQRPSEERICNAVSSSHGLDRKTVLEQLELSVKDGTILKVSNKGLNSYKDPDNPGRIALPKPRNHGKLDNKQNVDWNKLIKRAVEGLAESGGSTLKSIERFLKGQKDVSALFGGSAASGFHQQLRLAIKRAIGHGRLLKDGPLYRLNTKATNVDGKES
Oligonucleotide,E-score
ACGTAACC,0.0932
GACACTTA,0.00754
TCCAATAA,0.104
CGAACACG,0.187
ATTATCCA,0.061
AAGGTACG,0.0551
CAACAAGA,-0.163
GCTCCAGC,0.06
CAATCAAC,0.0428

# Set 2 — technique: protein-binding microarray; molecule type: double-stranded DNA, one strand shown; sample: in vitro; tested at: 2540 nM top; setting: 60-bp whole probe; together with: salmon DNA 0.4 mg/ml; baseline: random background probes; direction: higher = stronger binding; constant ends, left off below: GCCTAGCAC … GTCTTGATTCGCTTGACGCTGCTG
# Target: Interferon regulatory factor 3, full length, phosphomimetic (IRF3, Homo sapiens, UniProt Q14653, residues 1-427, S386D/S396D/S398D/S402D/T404D/S405D)
# Sequence of UniProt Q14653 (whole entry, unmodified, looked up): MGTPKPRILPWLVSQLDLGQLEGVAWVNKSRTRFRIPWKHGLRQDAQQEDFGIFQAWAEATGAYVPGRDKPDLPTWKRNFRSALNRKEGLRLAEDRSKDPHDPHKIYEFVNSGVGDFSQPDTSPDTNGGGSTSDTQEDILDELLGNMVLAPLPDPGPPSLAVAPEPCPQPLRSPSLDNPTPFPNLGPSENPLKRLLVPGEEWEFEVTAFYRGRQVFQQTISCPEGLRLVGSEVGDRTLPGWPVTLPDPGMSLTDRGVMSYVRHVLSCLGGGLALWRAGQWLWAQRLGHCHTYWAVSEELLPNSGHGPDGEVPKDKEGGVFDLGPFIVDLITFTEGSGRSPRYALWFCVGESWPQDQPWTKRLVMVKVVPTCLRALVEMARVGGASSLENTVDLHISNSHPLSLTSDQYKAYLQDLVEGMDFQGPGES
Oligonucleotide,fitted relative affinity [z-score]
TCATCTCCATTTTTCTAACTGTGCTAG,2.3
TCATTTCTGAATGTCCTACTGTGCTAG,2.36
TTAGGATTCGGGACTGGGTTAGTGCTA,0.407
CCTGGCTCCATGGAATTTTTGTGCTAG,-0.708
GACTAACTGGGGACTGGAGACGTGCTA,-0.403

# Set 3 — technique: universal PBM; molecule type: double-stranded DNA, one strand shown; sample: in vitro; tested at: not given; direction: higher = stronger binding
# Target: Sal-like protein 4, full length isoform B (SALL4, Homo sapiens, UniProt Q9UJQ4-2, residues 1-616)
# Setting: 8-mer, flanks averaged, mean of replicates
# Residues (chain): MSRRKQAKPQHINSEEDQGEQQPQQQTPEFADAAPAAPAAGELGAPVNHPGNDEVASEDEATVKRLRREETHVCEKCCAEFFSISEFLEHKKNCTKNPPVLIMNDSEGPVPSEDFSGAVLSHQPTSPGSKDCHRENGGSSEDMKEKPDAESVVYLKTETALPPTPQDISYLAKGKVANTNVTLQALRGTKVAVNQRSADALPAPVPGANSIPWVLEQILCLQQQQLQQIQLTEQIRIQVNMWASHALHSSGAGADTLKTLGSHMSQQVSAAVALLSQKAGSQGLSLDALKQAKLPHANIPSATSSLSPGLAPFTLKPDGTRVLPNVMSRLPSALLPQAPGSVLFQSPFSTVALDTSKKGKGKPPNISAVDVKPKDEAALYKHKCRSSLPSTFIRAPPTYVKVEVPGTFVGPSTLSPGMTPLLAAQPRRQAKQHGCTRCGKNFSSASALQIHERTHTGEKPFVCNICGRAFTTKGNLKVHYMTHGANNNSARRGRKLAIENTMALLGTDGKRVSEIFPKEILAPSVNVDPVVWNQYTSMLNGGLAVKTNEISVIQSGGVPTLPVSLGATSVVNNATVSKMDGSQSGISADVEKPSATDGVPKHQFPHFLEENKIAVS
Oligonucleotide,E-score
AAAGCAGA,0.0628
TTAACAAA,0.29
GCCCTGCC,-0.342
CAGGTGTC,-0.128

# Single results of other studies
Molecule,target,assay,system,conditions,scale,measurement,result
"PhoQ, residues 284 288 289 292 302 303 SCKMEA","PhoP, residues 12 14 15 18 19 STHWV (Escherichia coli, UniProt P23836)","Sort-seq, item: YFP reporter",E. coli,"PhoQ-PhoP variant library, together with: 10 µM Mg2+","baseline: high Mg2+ state, higher = stronger signaling",fold induction,12.4
